# Results collected from several papers.
# Every numbered part comes from another study and shows a few of its results, in no order.

# Study 1
# Target: Prothrombin, mature alpha-thrombin (F2, Homo sapiens, UniProt P00734)
# Method: aptamer microarray, sandwich
# Form: DNA with 2'F-ANA
# Sample: in vitro
# Concentration: 200 nM
# Notes: whole 15-mer aptamer, many near background
# Together with: Cy3 exosite-II aptamer, 400 nM
# Reading: higher = stronger binding
# Oligonucleotide: GGTTGGTGTGGTTGG
Modification,mean fluorescence intensity [a.u.]
2'F-ANA at 2 6 8 9 10 11,118
2'F-ANA at 2 5 6 7 10 12 14 15,46.3
2'F-ANA at 3 7 8,1460
2'F-ANA at 3 5 6 7 8 9 10 11 13,53.1
2'F-ANA at 1 3 7 8 9 11 12 13 14 15,141
2'F-ANA at 2 3 8 10 13 14,307
2'F-ANA at 1 3 4 5 6 8 9 10 12 14 15,52.9

# Study 2
# Molecule: PhoQ, residues 284 288 289 292 302 303 SVTLVV
# Method: Sort-seq
# Refers to: YFP reporter
# Sample: E. coli
# Notes: PhoQ-PhoP variant library
# Together with: 10 µM Mg2+
# Relative to: high Mg2+ state
# Reading: higher = stronger signaling
target,fold induction
"PhoP, residues 12 14 15 18 19 GMGLL (Escherichia coli, UniProt P23836)",12.2
"PhoP, residues 12 14 15 18 19 QQAYL (Escherichia coli, UniProt P23836)",20.3
"PhoP, residues 12 14 15 18 19 LFHKL (Escherichia coli, UniProt P23836)",4.7

# Study 3
# Target: Histone acetyltransferase KAT6A, both winged helices, GST fusion (KAT6A, Homo sapiens, UniProt Q92794, residues 1-181)
# Method: protein binding microarray
# Form: double-stranded DNA, one strand shown
# Sample: in vitro
# Concentration: not given
# Notes: 8-mer, flanks averaged, mean of 2 arrays, mostly near background
# Relative to: not given
# Reading: higher = stronger binding
# Target sequence (chain): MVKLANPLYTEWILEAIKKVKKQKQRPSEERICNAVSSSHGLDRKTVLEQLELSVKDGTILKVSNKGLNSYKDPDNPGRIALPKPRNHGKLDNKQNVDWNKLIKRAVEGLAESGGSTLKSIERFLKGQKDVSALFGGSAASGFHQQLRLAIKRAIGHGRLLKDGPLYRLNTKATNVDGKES
Oligonucleotide,E-score
ATCGTAAG,0.0627
AGCAGGCT,-0.121
AAGCCTGT,-0.00966
GAAGTATC,-0.118
CTGGGATC,-0.185

# Study 4
# Target: Interferon regulatory factor 5, full length, phosphomimetic (IRF5, Homo sapiens, UniProt Q13568-2, residues 1-514, K96S/S451D/S453D/S456D/S462D)
# Method: protein-binding microarray
# Form: double-stranded DNA, one strand shown
# Sample: in vitro
# Concentration: 250 nM
# Notes: 60-bp whole probe
# Together with: salmon DNA 0.4 mg/ml
# Relative to: random background probes
# Reading: higher = stronger binding
# All sequences stand within: GCCTAGCAC … GTCTTGATTCGCTTGACGCTGCTG
Oligonucleotide,log fluorescence [z-score]
TGAGGTATCGGACTGGGTTAGTGCTAG,0.575
CAGGAAATCAACTTTTTTTAAGTGCTA,0.476
GAATCTCTCATGTTACATTTGTGCTAG,0.753
CCTAGGGGCGGGGCCAAATGGTGCTAG,0.797
GTCAAACTCACTCATGGCTTTGTGCTA,0.181

# Some of these lines once more (study 4):
Oligonucleotide,log fluorescence [z-score]
GAATCTCTCATGTTACATTTGTGCTAG,0.753
CCTAGGGGCGGGGCCAAATGGTGCTAG,0.797
